Measurements pooled from the literature.
Numbers after ± are the reported error.
B1: SULT2A1 (Homo sapiens, UniProt Q06520); chain MSDDFLWFEGIAFPTMGFRSETLRKVRDEFVIRDEDVIILTYPKSGTNWLAEILCLMHSKGDAKWIQSVPIWERSPWVESEIGYTALSETESPRLFSSHLPIQLFPKSFFSSKAKVIYLMRNPRDVLVSGYFFWKNMKFIKKPKSWEEYFEWFCQGTVLYGSWFDHIHGWMPMREEKNFLLLSYEELKQDTGRTIEKICQFLGKTLEPEELNLILKNSSFQSMKENKMSNYSLLSVDYVVDKAQLLRKGVSGDWKNHFTVAQAEDFDKLFQEKMADLPRELFPWE
Sequence of UniProt P21729 (whole entry, looked up): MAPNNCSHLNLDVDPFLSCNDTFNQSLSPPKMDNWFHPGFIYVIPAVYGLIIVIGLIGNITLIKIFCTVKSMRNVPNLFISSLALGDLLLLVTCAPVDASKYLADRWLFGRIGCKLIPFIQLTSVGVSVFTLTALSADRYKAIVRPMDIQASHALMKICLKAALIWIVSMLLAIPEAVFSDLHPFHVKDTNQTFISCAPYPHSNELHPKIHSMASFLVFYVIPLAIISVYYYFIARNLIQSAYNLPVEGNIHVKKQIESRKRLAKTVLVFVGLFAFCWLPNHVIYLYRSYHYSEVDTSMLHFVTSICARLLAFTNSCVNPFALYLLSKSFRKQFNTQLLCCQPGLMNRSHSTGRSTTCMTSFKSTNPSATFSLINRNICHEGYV

`CC(C)C[C@H](NC(=O)[C@H](Cc1c[nH]cn1)NC(=O)[C@H](Cc1ccc(O)cc1)NC(=O)[C@H](CCCNC(=N)N)NC(=O)[C@H](Cc1ccc(O)cc1)NC(=O)[C@H](CCCCN)NC(=O)[C@H](CCCCN)NC(=O)c1ccc(CN/C(=N/C(=O)c2ccccc2)Nc2ccc(Br)cc2)cc1)C(=O)N[C@@H](CCCCN)C(=O)N1CCC[C@H]1C(=O)N[C@@H](Cc1ccccc1)C(=O)NCCCC[C@H](NC(=O)[C@H](Cc1ccccc1)NC(=O)[C@@H]1CCCN1C(=O)[C@H](CCCCN)NC(=O)[C@H](CC(C)C)NC(=O)[C@H](Cc1c[nH]cn1)NC(=O)[C@H](Cc1ccc(O)cc1)NC(=O)[C@H](CCCNC(=N)N)NC(=O)[C@H](Cc1ccc(O)cc1)NC(=O)[C@H](CCCCN)NC(=O)[C@H](CCCCN)NC(=O)c1ccc(CN/C(=N/C(=O)c2ccccc2)Nc2ccc(Br)cc2)cc1)C(N)=O` gave a CC50 of 2000 ± 0.11 µM (Swiss mouse peritoneal macrophages; MTT).
`N=C(N)NCCC[C@@H]1NC(=O)[C@H](CCCCNC(=O)CNC(=O)CNC(=O)CNC(=O)CC[C@H](NC(=O)CCOCCOCCOCCOCCNC(=O)CC[C@H](NC(=O)CN2CCN(CC(=O)O)CCN(CC(=O)O)CCN(CC(=O)O)CC2)C(=O)NCCOCCOCCOCCOCCC(=O)N[C@@H](CCC(=O)NCC(=O)NCC(=O)NCC(=O)NCCCC[C@@H]2NC(=O)[C@@H](Cc3ccccc3)NC(=O)[C@H](CC(=O)O)NC(=O)CNC(=O)[C@H](CCCNC(=N)N)NC2=O)C(=O)NCC(=O)NCC(=O)NCC(=O)NCCCC[C@@H]2NC(=O)[C@@H](Cc3ccccc3)NC(=O)[C@H](CC(=O)O)NC(=O)CNC(=O)[C@H](CCCNC(=N)N)NC2=O)C(=O)NCC(=O)NCC(=O)NCC(=O)NCCCC[C@@H]2NC(=O)[C@@H](Cc3ccccc3)NC(=O)[C@H](CC(=O)O)NC(=O)CNC(=O)[C@H](CCCNC(=N)N)NC2=O)NC(=O)[C@@H](Cc2ccccc2)NC(=O)[C@H](CC(=O)O)NC(=O)CNC1=O` [indium-111 labelled] gave a tissue uptake of 0.04 %ID/g (female athymic nude mice, blood; intravenous, 3 µCi, 4 h, U-87 MG glioma xenograft).
With `CCCC[C@H](NC(=O)CNC(=O)CNC(=O)c1ccc(NN)nc1)C(=O)N[C@H]1CC(=O)NCCCC[C@@H](C(N)=O)NC(=O)[C@H](Cc2c[nH]c3ccccc23)NC(=O)[C@H](CCCNC(=N)N)NC(=O)[C@@H](Cc2ccccc2)NC(=O)[C@H](Cc2c[nH]cn2)NC1=O` [technetium-99m labelled] the urinary excretion was 91.3 ± 1.96 % injected dose (C57 mice bearing B16/F1 melanoma, urine; intravenous, dose not given, 2 h post-injection).
With `N=C(N)NCCC[C@@H]1NC(=O)[C@H](CCCCNC(=O)CC[C@H](NC(=O)CCOCCOCCOCCOCCNC(=O)CN2CCN(CC(=O)O)CCN(CC(=O)O)CCN(CC(=O)O)CC2)C(=O)NCCCC[C@@H]2NC(=O)[C@@H](Cc3ccccc3)NC(=O)[C@H](CC(=O)O)NC(=O)CNC(=O)[C@H](CCCNC(=N)N)NC2=O)NC(=O)[C@@H](Cc2ccccc2)NC(=O)[C@H](CC(=O)O)NC(=O)CNC1=O` [indium-111 labelled] the tissue uptake was 0.78 ± 0.34 %ID/g (female athymic nude mice, liver; intravenous, 3 µCi, 72 h, U-87 MG glioma xenograft).
`CSCC[C@H](NC(=O)[C@H](CC(C)C)NC(=O)[C@H](Cc1c[nH]cn1)NC(=O)CNC(=O)[C@@H](NC(=O)[C@H](C)NC(=O)[C@H](Cc1c[nH]c2ccccc12)NC(=O)[C@H](CCC(N)=O)NC(=O)CCCCCNC(=O)CNC(=O)CNC(=O)CNC(=O)CSC(C)=O)C(C)C)C(N)=O` [technetium-99m labelled] has a tissue uptake of 0.51 ± 0.06 %ID/g (Swiss mouse, lung; intravenous, 18.5 MBq, 30 min).
For `CCCC[C@H](NC(=O)CNC(=O)[C@H](CO)NC(=O)CNC(=O)c1ccc(NN)nc1)C(=O)N[C@H]1CC(=O)NCCCC[C@@H](C(N)=O)NC(=O)[C@H](Cc2c[nH]c3ccccc23)NC(=O)[C@H](CCCNC(=N)N)NC(=O)[C@@H](Cc2ccccc2)NC(=O)[C@H](Cc2c[nH]cn2)NC1=O` [technetium-99m labelled], the uptake was 0.23 ± 0.01 %ID/g (C57 mouse, B16/F1 melanoma, liver; intravenous, 2 h).
For `CC(C)C[C@H](NC(=O)[C@@H]1CCCN1C(=O)[C@H](CCCCN)NC(=O)[C@@H](N)CO)C(=O)N1CCC[C@H]1C(=O)N[C@@H](CCC(=O)O)C(=O)N[C@H](C(=O)N[C@H](C(=O)N[C@@H](CC(=O)O)C(=O)N[C@@H](CCC(=O)O)C(=O)N[C@@H](Cc1ccc(O)cc1)C(=O)N[C@@H](Cc1cn(CCOCCOCCOCCNC(=O)CCc2ccc(O)c(CN(CCN(CC(=O)O)Cc3cc(CCC(=O)NCCCC[C@H](NC(=O)N[C@@H](CCC(=O)O)C(=O)O)C(=O)O)ccc3O)CC(=O)O)c2)nn1)C(=O)O)[C@@H](C)O)C(C)C` [gallium-68 labelled], “standardized uptake value” read 0.11 g/g (NMRI nu/nu mice, LNCaP tumour, liver; 10 MBq, high molar activity).
With `CCCNC(=O)[C@H](CC(C)C)NC(=O)[C@H](Cc1c[nH]cn1)NC(=O)CNC(=O)[C@@H](NC(=O)[C@H](C)NC(=O)[C@H](Cc1c[nH]c2ccccc12)NC(=O)[C@H](CCC(N)=O)NC(=O)[C@@H](Cc1ccccc1)NC(=O)CCCCCNC(=O)CN1CCN(CC(=O)O)CCN(CC(=O)O)CCN(CC(=O)O)CC1)C(C)C` [indium-111 labelled] the tissue uptake was 0.99 ± 0.69 %ID/g (Gastrin-releasing peptide receptor (Mus musculus, UniProt P21729); biodistribution; CF-1 mice, bladder; intravenous, 1 h, unblocked).
`N=C(N)NCCC[C@@H]1NC(=O)[C@H](CCCCNC(=O)CC[C@H](NC(=O)CCOCCOCCOCCOCCNC(=O)CC[C@H](NC(=O)CN2CCN(CC(=O)O)CCN(CC(=O)O)CCN(CC(=O)O)CC2)C(=O)NCCOCCOCCOCCOCCC(=O)N[C@@H](CCC(=O)NCCCC[C@@H]2NC(=O)[C@@H](Cc3ccccc3)NC(=O)[C@H](CC(=O)O)NC(=O)CNC(=O)[C@H](CCCNC(=N)N)NC2=O)C(=O)NCCCC[C@@H]2NC(=O)[C@@H](Cc3ccccc3)NC(=O)[C@H](CC(=O)O)NC(=O)CNC(=O)[C@H](CCCNC(=N)N)NC2=O)C(=O)NCCCC[C@@H]2NC(=O)[C@@H](Cc3ccccc3)NC(=O)[C@H](CC(=O)O)NC(=O)CNC(=O)[C@H](CCCNC(=N)N)NC2=O)NC(=O)[C@@H](Cc2ccccc2)NC(=O)[C@H](CC(=O)O)NC(=O)CNC1=O` [indium-111 labelled] has a tissue uptake of 2.89 ± 1.36 %ID/g (female athymic nude mice, liver; intravenous, 3 µCi, 4 h, U-87 MG glioma xenograft).
`B1 (SULT2A1)` gave a Vmax/Km of 75.9 µL/min/mg (C[C@]12CC[C@H](O)CC1CCC1C2[C@H](O)C(=O)[C@]2(C)[C@@H](c3ccc(=O)oc3)CC[C@]12O; steady-state kinetics; pH 7.4, 37 °C, sulfation by SULT2A1, not purified).
